Assay results of several laboratories.
A part holds a random share of what one study measured. Several values in a cell are separate wells, animals, samples, runs or records.
UniProt Q6ZN16, sequence (whole entry, looked up): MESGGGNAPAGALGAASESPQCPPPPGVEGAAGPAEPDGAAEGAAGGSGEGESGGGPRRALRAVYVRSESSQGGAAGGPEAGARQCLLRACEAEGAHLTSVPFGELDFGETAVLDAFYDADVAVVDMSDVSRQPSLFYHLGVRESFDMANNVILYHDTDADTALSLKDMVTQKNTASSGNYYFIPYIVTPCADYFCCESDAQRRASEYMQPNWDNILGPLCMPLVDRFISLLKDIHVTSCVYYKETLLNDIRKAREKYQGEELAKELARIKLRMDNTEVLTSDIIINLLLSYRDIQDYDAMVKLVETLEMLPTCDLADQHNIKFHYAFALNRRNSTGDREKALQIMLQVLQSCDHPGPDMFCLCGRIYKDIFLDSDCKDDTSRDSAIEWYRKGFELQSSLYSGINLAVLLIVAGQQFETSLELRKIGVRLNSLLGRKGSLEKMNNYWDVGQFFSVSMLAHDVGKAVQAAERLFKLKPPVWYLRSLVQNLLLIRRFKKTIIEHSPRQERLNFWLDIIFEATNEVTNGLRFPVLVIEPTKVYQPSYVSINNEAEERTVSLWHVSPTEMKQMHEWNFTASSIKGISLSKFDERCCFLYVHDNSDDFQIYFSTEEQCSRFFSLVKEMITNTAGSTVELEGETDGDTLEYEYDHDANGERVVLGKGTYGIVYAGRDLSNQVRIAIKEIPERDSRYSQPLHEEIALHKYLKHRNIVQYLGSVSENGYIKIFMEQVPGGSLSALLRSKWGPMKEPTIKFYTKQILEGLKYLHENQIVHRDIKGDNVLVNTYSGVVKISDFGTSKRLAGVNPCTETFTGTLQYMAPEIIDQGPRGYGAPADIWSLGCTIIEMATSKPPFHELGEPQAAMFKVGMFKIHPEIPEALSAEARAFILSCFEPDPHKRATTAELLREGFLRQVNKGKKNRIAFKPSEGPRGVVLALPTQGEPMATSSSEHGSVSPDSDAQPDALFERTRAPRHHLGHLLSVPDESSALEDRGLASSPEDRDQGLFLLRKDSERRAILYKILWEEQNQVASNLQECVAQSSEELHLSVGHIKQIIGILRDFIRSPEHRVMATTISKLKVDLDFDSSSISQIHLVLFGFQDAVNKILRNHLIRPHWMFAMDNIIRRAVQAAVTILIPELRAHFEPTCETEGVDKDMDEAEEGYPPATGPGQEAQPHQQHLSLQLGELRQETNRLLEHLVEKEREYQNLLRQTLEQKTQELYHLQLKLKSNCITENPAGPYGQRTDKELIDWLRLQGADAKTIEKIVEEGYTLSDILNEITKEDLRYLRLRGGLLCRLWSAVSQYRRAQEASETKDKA
UniProt Q59H18, sequence (whole entry, looked up): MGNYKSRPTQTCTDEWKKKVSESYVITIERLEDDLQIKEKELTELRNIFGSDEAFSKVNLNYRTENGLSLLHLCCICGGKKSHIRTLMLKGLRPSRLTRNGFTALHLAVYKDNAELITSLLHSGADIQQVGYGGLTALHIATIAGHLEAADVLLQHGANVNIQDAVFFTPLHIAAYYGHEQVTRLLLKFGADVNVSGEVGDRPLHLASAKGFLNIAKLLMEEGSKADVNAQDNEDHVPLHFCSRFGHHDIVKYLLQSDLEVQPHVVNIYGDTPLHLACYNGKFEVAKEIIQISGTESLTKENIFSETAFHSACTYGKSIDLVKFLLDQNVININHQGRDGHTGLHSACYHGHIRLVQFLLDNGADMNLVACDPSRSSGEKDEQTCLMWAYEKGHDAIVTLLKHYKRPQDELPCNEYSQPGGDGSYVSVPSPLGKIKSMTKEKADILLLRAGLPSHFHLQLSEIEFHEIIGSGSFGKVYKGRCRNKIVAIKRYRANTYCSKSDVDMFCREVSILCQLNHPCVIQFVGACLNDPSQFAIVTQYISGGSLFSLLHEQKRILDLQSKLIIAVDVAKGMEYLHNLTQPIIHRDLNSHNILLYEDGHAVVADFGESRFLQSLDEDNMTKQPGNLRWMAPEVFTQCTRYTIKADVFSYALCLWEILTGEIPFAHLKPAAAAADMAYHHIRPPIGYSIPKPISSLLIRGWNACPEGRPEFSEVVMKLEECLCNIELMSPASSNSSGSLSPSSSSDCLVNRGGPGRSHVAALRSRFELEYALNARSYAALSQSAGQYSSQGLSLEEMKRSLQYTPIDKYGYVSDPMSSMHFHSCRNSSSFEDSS
UniProt P27037, sequence (whole entry, looked up): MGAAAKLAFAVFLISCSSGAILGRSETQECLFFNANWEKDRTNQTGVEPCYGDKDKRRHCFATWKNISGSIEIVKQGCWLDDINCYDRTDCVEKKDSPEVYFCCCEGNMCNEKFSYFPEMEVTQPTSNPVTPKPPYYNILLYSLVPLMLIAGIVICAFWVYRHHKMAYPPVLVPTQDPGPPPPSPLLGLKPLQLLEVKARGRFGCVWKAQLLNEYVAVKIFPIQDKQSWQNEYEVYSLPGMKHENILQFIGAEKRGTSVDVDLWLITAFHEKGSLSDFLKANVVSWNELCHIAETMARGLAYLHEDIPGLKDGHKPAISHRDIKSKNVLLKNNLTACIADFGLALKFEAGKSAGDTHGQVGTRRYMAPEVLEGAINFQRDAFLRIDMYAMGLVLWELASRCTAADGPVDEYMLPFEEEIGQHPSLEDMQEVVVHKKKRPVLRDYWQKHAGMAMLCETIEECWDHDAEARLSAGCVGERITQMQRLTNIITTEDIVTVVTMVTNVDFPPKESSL
UniProt Q02750, sequence (whole entry, looked up): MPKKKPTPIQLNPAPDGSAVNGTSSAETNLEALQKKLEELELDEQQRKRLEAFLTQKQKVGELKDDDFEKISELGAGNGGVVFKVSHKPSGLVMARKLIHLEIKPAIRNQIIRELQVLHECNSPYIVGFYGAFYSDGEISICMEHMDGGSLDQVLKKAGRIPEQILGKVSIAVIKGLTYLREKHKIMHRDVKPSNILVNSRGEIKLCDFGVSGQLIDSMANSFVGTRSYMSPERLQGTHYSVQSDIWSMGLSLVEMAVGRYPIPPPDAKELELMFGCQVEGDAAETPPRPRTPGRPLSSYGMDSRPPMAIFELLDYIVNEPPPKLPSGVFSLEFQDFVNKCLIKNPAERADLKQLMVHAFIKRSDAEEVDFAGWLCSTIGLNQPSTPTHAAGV
UniProt Q9H422, sequence (whole entry, looked up): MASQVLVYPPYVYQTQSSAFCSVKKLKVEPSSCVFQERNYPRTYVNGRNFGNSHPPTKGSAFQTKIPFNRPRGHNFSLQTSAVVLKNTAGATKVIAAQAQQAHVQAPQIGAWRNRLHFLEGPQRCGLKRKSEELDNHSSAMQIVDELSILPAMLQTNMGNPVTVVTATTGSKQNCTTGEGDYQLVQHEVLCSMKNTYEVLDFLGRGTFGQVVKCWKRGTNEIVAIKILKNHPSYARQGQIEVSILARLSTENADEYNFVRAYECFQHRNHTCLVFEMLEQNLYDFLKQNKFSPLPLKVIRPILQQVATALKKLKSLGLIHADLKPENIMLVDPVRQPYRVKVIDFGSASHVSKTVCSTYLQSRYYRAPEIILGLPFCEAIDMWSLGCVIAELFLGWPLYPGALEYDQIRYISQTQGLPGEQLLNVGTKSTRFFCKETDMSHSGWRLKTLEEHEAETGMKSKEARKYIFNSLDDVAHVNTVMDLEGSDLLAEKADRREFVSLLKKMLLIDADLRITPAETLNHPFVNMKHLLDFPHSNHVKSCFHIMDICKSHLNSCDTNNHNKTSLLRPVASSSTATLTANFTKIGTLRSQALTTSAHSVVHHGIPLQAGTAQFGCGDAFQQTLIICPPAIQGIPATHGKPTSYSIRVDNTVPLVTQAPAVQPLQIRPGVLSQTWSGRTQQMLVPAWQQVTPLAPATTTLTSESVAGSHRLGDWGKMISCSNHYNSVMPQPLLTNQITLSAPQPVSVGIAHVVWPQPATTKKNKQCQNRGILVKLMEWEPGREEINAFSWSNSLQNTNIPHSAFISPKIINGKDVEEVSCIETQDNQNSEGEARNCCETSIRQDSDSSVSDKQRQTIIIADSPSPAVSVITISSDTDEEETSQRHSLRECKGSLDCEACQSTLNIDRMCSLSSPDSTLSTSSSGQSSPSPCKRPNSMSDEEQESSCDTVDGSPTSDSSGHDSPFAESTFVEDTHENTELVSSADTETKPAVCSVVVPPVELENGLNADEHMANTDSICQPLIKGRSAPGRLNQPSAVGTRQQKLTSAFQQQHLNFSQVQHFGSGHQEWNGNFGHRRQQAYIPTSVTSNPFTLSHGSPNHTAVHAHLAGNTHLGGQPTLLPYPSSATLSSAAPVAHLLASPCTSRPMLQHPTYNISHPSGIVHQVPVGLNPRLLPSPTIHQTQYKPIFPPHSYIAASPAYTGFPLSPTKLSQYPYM
UniProt Q00532, sequence (whole entry, looked up): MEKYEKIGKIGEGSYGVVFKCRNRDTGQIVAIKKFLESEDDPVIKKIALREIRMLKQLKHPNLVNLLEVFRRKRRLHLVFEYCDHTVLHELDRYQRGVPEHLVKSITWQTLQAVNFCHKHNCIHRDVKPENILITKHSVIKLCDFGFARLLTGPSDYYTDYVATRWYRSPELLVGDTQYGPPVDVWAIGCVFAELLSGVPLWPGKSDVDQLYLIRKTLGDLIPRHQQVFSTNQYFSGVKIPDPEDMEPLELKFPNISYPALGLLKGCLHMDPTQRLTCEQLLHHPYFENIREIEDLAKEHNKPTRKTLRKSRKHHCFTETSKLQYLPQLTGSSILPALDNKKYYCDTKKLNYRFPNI
UniProt Q13163, sequence (whole entry, looked up): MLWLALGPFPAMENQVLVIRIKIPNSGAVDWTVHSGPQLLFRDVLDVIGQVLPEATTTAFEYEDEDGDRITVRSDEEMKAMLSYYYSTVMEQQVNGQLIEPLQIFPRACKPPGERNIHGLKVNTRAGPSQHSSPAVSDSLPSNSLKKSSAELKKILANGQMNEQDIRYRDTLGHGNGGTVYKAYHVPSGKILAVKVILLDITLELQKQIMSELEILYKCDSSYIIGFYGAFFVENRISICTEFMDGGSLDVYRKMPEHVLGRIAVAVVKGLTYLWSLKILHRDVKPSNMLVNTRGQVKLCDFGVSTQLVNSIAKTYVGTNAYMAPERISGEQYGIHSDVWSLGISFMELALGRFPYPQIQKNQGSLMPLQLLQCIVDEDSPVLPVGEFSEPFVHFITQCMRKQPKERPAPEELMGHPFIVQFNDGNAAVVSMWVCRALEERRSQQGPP

Set 1 — technique: competition with immobilised ligand; concentration: 1 µM; quantity: remaining binding
SMILES: Cn1cncc1[C@@](O)(COc1ccc(C#N)cc1-c1ccc(OC(F)(F)F)cc1)c1ccc(C#N)cc1
Tyrosine-protein kinase ABL1, phosphorylated (ABL1, Homo sapiens, UniProt P00519, F317L); cell-free assay: 100%
Activin receptor type-2A (ACVR2A, Homo sapiens, UniProt P27037); cell-free assay: 98%
Serine/threonine-protein kinase N2 (PKN2, Homo sapiens, UniProt Q16513); cell-free assay: 85%
Ribosomal protein S6 kinase alpha-3, C-terminal kinase domain (RPS6KA3, Homo sapiens, UniProt P51812); cell-free assay: 72%
Dual specificity mitogen-activated protein kinase kinase 1 (MAP2K1, Homo sapiens, UniProt Q02750); cell-free assay: 89%
Serine/threonine-protein kinase TNNI3K (TNNI3K, Homo sapiens, UniProt Q59H18); cell-free assay: 100%
Myotonin-protein kinase (DMPK, Homo sapiens, UniProt Q09013); cell-free assay: 94%
MAP/microtubule affinity-regulating kinase 3 (MARK3, Homo sapiens, UniProt P27448); cell-free assay: 93%
Cyclin-G-associated kinase (GAK, Homo sapiens, UniProt O14976); cell-free assay: 91%
Dual specificity mitogen-activated protein kinase kinase 5 (MAP2K5, Homo sapiens, UniProt Q13163); cell-free assay: 88%
Cyclin-dependent kinase-like 1 (CDKL1, Homo sapiens, UniProt Q00532); binding: 89%
Serine/threonine-protein kinase ULK3 (ULK3, Homo sapiens, UniProt Q6PHR2); cell-free assay: 78%
cGMP-dependent protein kinase 2 (PRKG2, Homo sapiens, UniProt Q13237); cell-free assay: 87%
Mitogen-activated protein kinase kinase kinase 1 (MAP3K1, Homo sapiens, UniProt Q13233); cell-free assay: 100%
Homeodomain-interacting protein kinase 3 (HIPK3, Homo sapiens, UniProt Q9H422); cell-free assay: 97%
Mitogen-activated protein kinase kinase kinase 15 (MAP3K15, Homo sapiens, UniProt Q6ZN16); cell-free assay: 83%

Set 2 — organism: Cryptosporidium parvum; technique: time-kill; cells: HCT-8; strain: nanoluciferase-expressing; reference: DMSO control; quantity: luminescence remaining
SMILES: CNC(=O)c1ccc(-c2cnn3ccc(C(=O)N(C)c4ccc(Cl)c(C(=O)OC)c4)cc23)cc1
0.7407 µM, 8 h: 101% and 102%
6.667 µM, 4 h: 94% and 106%
0.00102 µM, 8 h: 88.2% and 82%
0.00305 µM, 24 h: 112% and 88.1%
0.7407 µM, 72 h: 10.5% and 11.4%
0.00305 µM, 4 h: 115% and 86.5%
2.222 µM, 72 h: 10.3% and 9.78%
2.222 µM, 8 h: 85.1% and 102%

Set 3 — matrix: plasma; quantity: plasma concentration
SMILES: O=C1CCC(N2Cc3c(ccc4c3OCC43CCN(Cc4ccccc4)CC3)C2=O)C(=O)N1 (centres unmarked)
male Sprague Dawley rats; oral, 3 mg/kg, 0.25 h: 33.8 ng/mL
male Sprague Dawley rats; intravenous, 1 mg/kg, 0.083 h: 368 ng/mL
Sprague Dawley rat, male; oral, 3 mg/kg, 0.5 h: 66.5 ng/mL and 53.2 ng/mL
ICR mouse, male; intravenous, 1 mg/kg, 2 h: 54.4 ng/mL and 61.2 ng/mL
male ICR mice; oral, 3 mg/kg, 0.083 h: 90.6 ng/mL
male Sprague Dawley rats; intravenous, 1 mg/kg, 6 h: 33.3 ng/mL
ICR mouse, male; oral, 3 mg/kg, 24 h: 1.28 ng/mL

Single results of other studies
Cc1nc(Nc2ncc(C(=O)Nc3c(C)cccc3Cl)s2)cc(N2CCN(CCO)CC2)n1
inhibition (Dual specificity tyrosine-phosphorylation-regulated kinase 1B (DYRK1B, Homo sapiens, UniProt Q9Y463); 1 µM): < 50%

Excerpt of the above (set 3):
Sprague Dawley rat, male; oral, 3 mg/kg, 0.5 h: 66.5 ng/mL and 53.2 ng/mL
ICR mouse, male; intravenous, 1 mg/kg, 2 h: 54.4 ng/mL and 61.2 ng/mL
male ICR mice; oral, 3 mg/kg, 0.083 h: 90.6 ng/mL
